Measured values collected from several papers.
Compare with care: the assays were run in different laboratories.
Organism: Escherichia coli

COc1nc(C(=O)Nc2ccc(C(=O)O)nc2OC)ccc1NC(=O)c1ccc(NC(=O)[C@H](Cc2c[nH]nn2)NC(=O)c2ccc(NC(=O)/C(C)=C/c3ccc(O)cc3)cc2)cc1  MIC (broth microdilution; DSM 1116): 0.5 µg/mL
CC[C@H]1OC(=O)[C@H](C)[C@@H](OC(=O)Cc2c(F)cccc2F)[C@H](C)[C@@H](O[C@@H]2O[C@H](C)C[C@H](N(C)C)[C@H]2O)[C@](C)(OC)C[C@@H](C)C(=O)[C@H](C)[C@@H](O)[C@]1(C)O  MIC (tolC): 2 µg/mL
CC(C)C[C@@H]1NC(=O)[C@@H](CC(C)C)NC(=O)[C@H](CCN)NC(=O)[C@@H](NC(=O)[C@H](CCN)NC(=O)[C@@H](NC(=O)CCOCCOCCOCCN=[N+]=[N-])[C@@H](C)O)CCNC(=O)[C@H]([C@@H](C)O)NC(=O)[C@H](CCN)NC(=O)[C@H](CCN)NC1=O  MIC (broth microdilution; ATCC 25922; 18 to 20 h): 128 µg/mL
CC[C@H](C)[C@H](NC(=O)[C@@H](CCCNC(=N)N)NC(=O)[C@H](CCCNC(=N)N)NC(=O)[C@@H]1CCCN1C(=O)[C@@H]1CCCN1C(=O)[C@H](CCCCN)NC(=O)[C@@H]1CCCN1C(=O)[C@H](CCCNC(=N)N)NC(=O)[C@@H]1CCCN1C(=O)[C@H](CC(C)C)NC(=O)[C@H](Cc1ccc(O)cc1)NC(=O)[C@@H]1CCCN1C(=O)[C@@H]1CCCN1C(=O)[C@H](CCCCN)NC(=O)[C@H](CC(=O)O)NC(=O)[C@@H](N)C(C)C)C(=O)N[C@@H](Cc1ccc(O)cc1)C(=O)N[C@@H](CC(N)=O)C(=O)N[C@H](CCCNC(=N)N)C(N)=O  MIC (broth microdilution; MC4100; 18 h, 37 °C, 25% MHB2): 8 µg/mL
CC[C@H]1OC(=O)[C@H](C)[C@@H](OC(=O)Cc2c(F)cc([N+](=O)[O-])cc2F)[C@H](C)[C@@H](O[C@@H]2O[C@H](C)C[C@H](N(C)C)[C@H]2O)[C@](C)(OC)C[C@@H](C)C(=O)[C@H](C)[C@@H](O)[C@]1(C)O  MIC (DSM 30083; compound alone): 128 µM
CN[C@H](CC(C)C)C(=O)N[C@H]1C(=O)N[C@@H](CC(N)=O)C(=O)N[C@H]2C(=O)N[C@H]3C(=O)N[C@H](C(=O)N[C@H](C(=O)O)c4cc(O)cc(O)c4-c4cc3ccc4O)[C@H](O)c3ccc(c(Cl)c3)Oc3cc2cc(c3O[C@@H]2O[C@H](CO)[C@@H](O)[C@H](O)[C@H]2O[C@H]2C[C@](C)(NCc3ccc(OCc4cn(CCCCC(=O)N[C@H](C(=O)N[C@@H](CCN)C(=O)N[C@H]5CCNC(=O)[C@H]([C@@H](C)O)NC(=O)[C@H](CCN)NC(=O)[C@H](CCN)NC(=O)[C@H](CC(C)C)NC(=O)[C@@H](CC(C)C)NC(=O)[C@H](CCN)NC5=O)[C@@H](C)O)nn4)c(OC)c3)[C@H](O)[C@H](C)O2)Oc2ccc(cc2Cl)[C@H]1O  MIC (broth microdilution; ATCC 25922; 18 to 20 h): 16 µg/mL
CCCCCCCCCC[N+](C)(C)CCCCOc1cc(OCCCC[N+](C)(C)CCCCCCCCCC)cc(OCCCC[N+](C)(C)CCCCCCCCCC)c1.[Br-].[Br-].[Br-]  MIC (MC4100): 1 µM
CN[C@H](CC(C)C)C(=O)N[C@H]1C(=O)N[C@@H](CC(N)=O)C(=O)N[C@H]2C(=O)N[C@H]3C(=O)N[C@H](C(=O)N[C@H](C(=O)NCc4cn(CCCCC(=O)N[C@H](C(=O)N[C@@H](CCN)C(=O)N[C@H]5CCNC(=O)[C@H]([C@@H](C)O)NC(=O)[C@H](CCN)NC(=O)[C@H](CCN)NC(=O)[C@H](CC(C)C)NC(=O)[C@@H](CC(C)C)NC(=O)[C@H](CCN)NC5=O)[C@@H](C)O)nn4)c4cc(O)cc(O)c4-c4cc3ccc4O)[C@H](O)c3ccc(c(Cl)c3)Oc3cc2cc(c3O[C@@H]2O[C@H](CO)[C@@H](O)[C@H](O)[C@H]2O[C@H]2C[C@](C)(N)[C@H](O)[C@H](C)O2)Oc2ccc(cc2Cl)[C@H]1O  MIC (broth microdilution; ATCC 25922; 18 to 20 h): 16 µg/mL
COc1ccc2ccc(O)c(/C=N/[C@H]3CCCC[C@H]3/N=C/c3ccc(F)cc3O)c2c1  MIC (microbial growth, broth dilution; clinical isolate): > 40 µM
COc1cc(C(=O)Nc2ccc(C(=O)O)c(O)c2)ccc1NC(=O)c1ccc(NC(=O)[C@H](Cc2c[nH]nn2)NC(=O)c2ccc(NC(=O)/C(C)=C/c3ccc(O)cc3)cc2)cc1  MIC (broth microdilution; ciprofloxacin-sensitive): 0.25 µg/mL
CC(CC(=O)O)c1n[nH]c2nc(N)[nH]c(=O)c2c1=O (centres unmarked)  MIC (microbial growth, broth dilution; BW25113; 18 h): > 100 µg/mL
COc1c(C)c(OC(=O)c2ccccc2)c(C)c(OC(=O)c2ccccc2)c1C(=O)/C=C/c1ccccc1  MIC (microbial growth, broth dilution; ATCC25922): 2500 µg/mL
CC[C@H]1OC(=O)[C@H](C)[C@@H](OC(=O)Cc2ccc([N+](=O)[O-])cc2)[C@H](C)[C@@H](O[C@@H]2O[C@H](C)C[C@H](N(C)C)[C@H]2O)[C@](C)(OC)C[C@@H](C)C(=O)[C@H](C)[C@@H](O)[C@]1(C)O  MIC (lpxC): 32 µg/mL
COc1ccc2ccc(O)c(/C=N/[C@H]3CCCC[C@H]3/N=C/c3cc(C)ccc3O)c2c1  MIC (microbial growth, broth dilution; clinical isolate): > 40 µM
CCn1cc(/C=C/c2sc3ccccc3[n+]2CC)c2ccccc21  MIC (microbial growth, broth dilution; 780): 16 µg/mL
O=[N+]([O-])c1cc(Cl)c2cccnc2c1O  MIC (microbial growth, broth dilution; ATCC25922): 2 µg/mL
CC1(C)[C@H](NC(=O)/C(=N\OC2(C(=O)O)CCCCC2)c2csc(N)n2)C(=O)N1OS(=O)(=O)O  MIC (agar dilution; 16-1, ESBL-producing): 1 µg/mL
CC[C@H](C)[C@H](NC(=O)[C@H](CCN)NC(=O)CCCCCCCCCCCNC(=O)CCCCCOC(=O)c1cn(C2CC2)c2cc(N3CCNCC3)c(F)cc2c1=O)C(=O)N[C@@H](CCN)C(=O)N[C@H](Cc1ccccc1)C(=O)N[C@@H](CC(C)C)C(=O)N[C@@H](CCN)C(=O)N[C@@H](C(=O)N[C@@H](CC(C)C)C(=O)N[C@@H](CO)C(N)=O)C(C)C  MIC: 2.52 µg/mL
COc1nc(C(=O)Nc2ccc(C(=O)O)c(O)c2OC)ccc1NC(=O)c1ccc(NC(=O)[C@H](Cc2c[nH]nn2)NC(=O)c2ccc(NC(=O)/C(C)=C/c3ccc(O)cc3)cc2)cc1  MIC (broth microdilution; BW25113): 0.063 µg/mL
C=CCO/N=C(\C(=O)N[C@@H]1C(=O)N(OS(=O)(=O)O)C1(C)C)c1nsc(N)n1  MIC (agar dilution; 16-1, ESBL-producing): 0.25 µg/mL
Cn1nc(CC(=O)O)c(=O)c2c(=O)[nH]c(N)nc21  MIC (microbial growth, broth dilution; BW25113; 18 h): > 100 µg/mL
COc1c(C)c(OS(=O)(=O)c2ccccc2)c(C)c2c1C(=O)CC(c1ccccc1)O2 (centres unmarked)  MIC (microbial growth, broth dilution; ATCC25922): 5000 µg/mL
COc1ccc2ccc(O)c(/C=N/[C@H]3CCCC[C@H]3/N=C/c3ccc(C)cc3O)c2c1  MIC (microbial growth, broth dilution): > 40 µM
COc1c(NC(=O)c2ccc(NC(=O)c3ccc(NC(=O)[C@H](Cc4c[nH]nn4)NC(=O)c4ccc(NC(=O)/C(C)=C/c5ccc(O)cc5)cc4)cc3)cc2)ccc(C(=O)O)c1O  MIC (broth microdilution; ciprofloxacin-sensitive): 0.25 µg/mL
CCCCCCn1cc[n+](CCCCOc2cc(OCCCC[n+]3ccn(CCCCCC)c3)cc(OCCCC[n+]3ccn(CCCCCC)c3)c2)c1.[Br-].[Br-].[Br-]  MIC (MC4100): 4 µM
CC[C@H]1OC(=O)[C@H](C)[C@@H](OC(=O)Cc2ccc3c(c2)OCO3)[C@H](C)[C@@H](O[C@@H]2O[C@H](C)C[C@H](N(C)C)[C@H]2O)[C@](C)(OC)C[C@@H](C)C(=O)[C@H](C)[C@@H](O)[C@]1(C)O  MIC (DSM 30083; with: colistin sulfate at 0.5 x MIC): 0.25 µM
COc1cc(C(=O)O)ccc1NC(=O)c1ccc(NC(=O)c2ccc(NC(=O)[C@H](Cc3c[nH]nn3)NC(=O)c3ccc(NC(=O)/C(C)=C/c4ccc(O)cc4)cc3)cc2)c(OC)c1  MIC (broth microdilution; DSM 1116): 1 µg/mL
C[C@H](CS)C(=O)Nc1cccc(-c2nn[nH]n2)c1  MIC (broth microdilution, refers to: meropenem; DH5α pET28-lacUV5 control; 100 µM, with: meropenem): < 0.125 µg/mL
CCCCCCCC[N+](C)(C)CCCCOc1cc(OCCCC[N+](C)(C)CCCCCCCC)cc(OCCCC[N+](C)(C)CCCCCCCC)c1.[Br-].[Br-].[Br-]  MIC (MC4100): 2 µM
COc1c(NC(=O)c2ccc(NC(=O)c3ccc(NC(=O)[C@H](CC#N)NC(=O)c4ccc(NC(=O)/C(C)=C/c5ccc(O)cc5)cc4)cc3)c(OC)c2O)ccc(C(=O)O)c1O  MIC (broth microdilution; ciprofloxacin-sensitive): 0.031 µg/mL
CCCCCCCCCCCCCCCCCCn1cc(CN(CCC(=O)NCCN(CCC(=O)NCCN(CCC(=O)NCCN(C)C)CCC(=O)NCCN(C)C)CCC(=O)NCCN(CCC(=O)NCCN(C)C)CCC(=O)NCCN(C)C)CCC(=O)NCCN(CCC(=O)NCCN(CCC(=O)NCCN(C)C)CCC(=O)NCCN(C)C)CCC(=O)NCCN(CCC(=O)NCCN(C)C)CCC(=O)NCCN(C)C)nn1  MIC (microbial growth, broth dilution; MG1655; 18 h): 6 µg/mL
COc1cc(C(=O)Nc2ccc(C(=O)O)cc2)ccc1NC(=O)c1ccc(NC(=O)[C@H](Cc2c[nH]nn2)NC(=O)c2ccc(NC(=O)/C(C)=C/c3ccc(O)cc3)cc2)cc1  MIC (broth microdilution; BW25113): 4 µg/mL
CC[C@H]1OC(=O)[C@H](C)[C@@H](OC(=O)Cc2ccc(N)cc2)[C@H](C)[C@@H](O[C@@H]2O[C@H](C)C[C@H](N(C)C)[C@H]2O)[C@](C)(OC)C[C@@H](C)C(=O)[C@H](C)[C@@H](O)[C@]1(C)O  MIC (lpxC): > 32 µg/mL
COc1cc(C(=O)O)ccc1NC(=O)c1ccc(NC(=O)c2ccc(NC(=O)[C@H](Cc3c[nH]nn3)NC(=O)c3ccc(NC(=O)/C(C)=C/c4ccc(O)cc4)cc3)cc2)cc1  MIC (broth microdilution; ciprofloxacin-sensitive): 0.25 µg/mL
CC1(C)C(NC(=O)C(=NOC2(C(=O)O)CC2)c2csc(N)n2)C(=O)N1OS(=O)(=O)O (centres unmarked)  MIC (agar dilution; 16-1, ESBL-producing): 0.06 µg/mL

Excerpt of the above:
CC[C@H]1OC(=O)[C@H](C)[C@@H](OC(=O)Cc2c(F)cccc2F)[C@H](C)[C@@H](O[C@@H]2O[C@H](C)C[C@H](N(C)C)[C@H]2O)[C@](C)(OC)C[C@@H](C)C(=O)[C@H](C)[C@@H](O)[C@]1(C)O  MIC (tolC): 2 µg/mL
CC1(C)C(NC(=O)C(=NOC2(C(=O)O)CC2)c2csc(N)n2)C(=O)N1OS(=O)(=O)O (centres unmarked)  MIC (agar dilution; 16-1, ESBL-producing): 0.06 µg/mL
